Measured values of several laboratories.
Parts stem from different laboratories: compare values within a part only. Positions count from the first letter of the parent shown.

Block 1
Target: RNA binding protein fox-1 homolog 2, RRM domain, GST-SBP tag (RBFOX2, Homo sapiens, UniProt O43251-10, residues 100-194)
Method: RNA Bind-n-Seq
Form: RNA
Medium: in vitro
Tested at: 365 nM
Setting: natural RNA segment, single round, ends assumed
Reference: no-protein control
Direction: higher = stronger binding
Shared flanks, not repeated: GGGAGUUCUACAGUCCGACGAUC … UGGAAUUCUCGGGUGCCAA
Target sequence (chain): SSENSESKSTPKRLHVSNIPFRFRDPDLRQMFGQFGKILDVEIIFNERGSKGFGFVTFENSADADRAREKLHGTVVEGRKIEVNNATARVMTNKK
Oligonucleotide | RBNS enrichment (R)
AAGACCGGAGCCCCGCAGGAGUGGGGAGGAAUGGGAGGAGUGUGUACGCUUGGGGGCUGGGAUGCCGUGUACACACGCACAAGUACACAUCGCGCUCAGGACUUCACUGA | 0.952
CUUAGAACUUUCCAAGCGCCAGUGCACAGCGUUCUAGGGAAUGGUGCUCCUUGGCUGGGUGAGCUGCCAGGCAAGUUUAAAUAUGCUGUGUGUGCCACAUUUUUAAAUUU | 0.763
UCCGAGAGACUUUCUGCUAAUGGUUCAGGAGGCGGAAGAGGAGCUCCUGGCCUCCCAGGUCACGCCAAACAGGCUAGAUCUUCCUGAGGACAGCCACCCAGGUCUGCAGC | 0.498
GAUUUACACAAAUGUGACAACUUGGGCUCAAUUCACUCUGCUUUCCAACAGUGUAAAUGCAUAGCAGUGUUUAUCUGCAUGAGAACUAUGCACUAAUCUAUCUGAAGAAA | 0.757
AAGGCCUGUGUGCUGCUCUCAUGGCCCUGGUGCACCACCUUUCUGUGAAUCUCUCCCACUGGAUCCCUCUUACCUGCAACGUGUCUGUUCUCGUUCUGUAGCAUUUGUAA | 1.22
CACUUCCAAAAAGCUGGCAAAGCGUAACGCAGCAGCUAAGAUGCUCCUUCGAGUGCACACUGUACCUCUGGAUGCCCGGGAUGGCAAUGAGGCAGAGCCUGAUGACGAUC | 0.512
AGAAGUGUUCAUUUUUGUUUUCUUCAUGUAGCUUGUAGAUCAUAAUAAGUAUUUGCUCUUAAAAUUUACUACUUAGUAGCAUGAUUAUUUUUGUUCUGUUGAUGAAGCAA | 0.909
CUUUAUUUUUGUAAGUAUCACCUGCCACCAUGUUUUGUAAUUUGAGGUCUUGAUUUCACCAUUGUCGGUGAAGAAAAUUUUCAAUAAAUAUGUAUUACCCGUCUGAAGCU | 0.945
UUGUGGGUGGCGGGCGUUGGCAGAGAGCAGCAGGCACCUUAAUGCUGACUUGUCAGUAUCUCCAUCUCUAGUCACCUUUCUGGUGUCAGAAGAGAUGUGAUCUUCUACUG | 0.305
UCAAAUGUAGUCUCUGUUAAGGUCAAGUUUUCUUUUAUAAGCCUUUAAUUCAUCCUCAGUGACUCUGGCAAGGCUGCUUCUCUAUCACUGGCUUUGCACAGAAGUAUGCU | 0.856
GACACUGCUCCACUCAGUAUUCAUCCUGUUGACGCACACAGGUGAGCACUUUCCUAACUACUGCAGACAGACUGACUGCCAAGGCACACUGUGCUCACGACUGGAAAGUA | 0.319
GGGCUACUGUGGUUUAGACACUCCUGCUGCUCACAUUGAUGGGUGGCUAUUAAAGUUUCUUCACCCCUCUGUCUGCCUCUAGCCUGUUUCCCUUGGCCUGGGCAGCCUAU | 0.377

Block 2
Target: Fragile X messenger ribonucleoprotein 1, C-terminal low-complexity region (Fmr1, Mus musculus, UniProt P35922)
Method: RNA Bind-n-Seq
Form: RNA
Medium: in vitro
Tested at: 200 nM
Setting: whole 134-nt RNA, ends assumed
Together with: 150 mM KCl
Reference: input library
Direction: higher = stronger binding
Shared flanks, not repeated: GGGAGUUCUACAGUCCGACGAUC … UGGAAUUCUCGGGUGUCAAGG
Oligonucleotide | log2 enrichment
UCCUGUGCUACACAUCGUAUGUACCGAAUCGGUUUUUUUGGUUUUUUUGGUUUUUUUGGAAAGUAUUAUGUUACGCCGUUCGGAUCUGCA | -0.145
CUCAAGUCCUGUGCUACACAUCGUAUGUACCGAAUCGGGCCGGGGCCGGGCCGGAAAGUAUUAUGUUACGCCGUUCGGAUCUGCACUUCC | 0.0583
UGACUUUAGAGGAGGAUCUGAUGGAUAUGGCAGUGGACGUGGAUUUGGGGAUGGCUAUAAUGGGUAUGGAGGAGGACCUGGAGGUGGCAA | 0.324
GCAGGAAGUAAAAACAAAUGGAAAUGCUUCGGAUAGUGGCAGGGGUGGGGGUUGCUAAGGAAAGGGAGGGAUGGGAGUGGGUAAAGAGUU | 0.196
AAGUCCUGUGCUACACAUCGUAUGUACCGAAUCGGGAAAGGGUGGGUUUUUUUGGGAAAGUAUUAUGUUACGCCGUUCGGAUCUGCACUU | 0.891
CACAGACAACACGCACCCACACAGACACAGAGGGAAGGGGUUGGGAUGGGGACAUGGUGCACAGCAGGGCGGGGUAGGACCCCAGCCCCU | 1.16
AGUCCUGUGCUACACAUCGUAUGUACCGAAUCAAAUUUUUAAACCCAAAUUUUUAAAAAAGUAUUAUGUUACGCCGUUCGGAUCUGCACU | -0.105
CACAGACAACACGCACCCACACAUACACAGAGGGAAGGGGUUGGGAUGGGGACAGGGUGCACAGCAGGGCGGGGUAGGACCCCAGCCCCU | 1.31
UAACUUUAGAGGAGGAUCUGAUGGAUAUGGCAGUGGACGUGGAUUUGGGGAUGGCUAUAAUGGGUAUGGGGGAGGACCUGGAGGUGGCAA | 0.209
UCCUGUGCUACACAUCGUAUGUACCGAAUCGGGGUUUGGGGUUUUUUUGGGGUUUGGGGAAAGUAUUAUGUUACGCCGUUCGGAUCUGCA | 1.12
CUGUGCUACACAUCGUAUGUACCGAAUCGGGGUUUUUUUGGGUUUUUUUGGGUUUUUUUGGAAAGUAUUAUGUUACGCCGUUCGGAUCUG | -0.637
UGUGCUACACAUCGUAUGUACCGAAUCGGGGAAAAAAAGGGGUUUUUUUGGGGAAAAAGGGGAAAGUAUUAUGUUACGCCGUUCGGAUCU | 0.184
ACCAUGCAGGUAGGCAUCUUUGGGAAGUGGGGCAAGGGGGGGAUAGGGAGGGGGGUAACACUUUGGGAACAGGUGGUCCCAGGUCGUUUC | 1.02
CUCAAGUCCUGUGCUACACAUCGUAUGUACCGAAUCGGAAAGGAAAGGAAAGGAAAGUAUUAUGUUACGCCGUUCGGAUCUGCACUUCCA | -0.351

Block 3
Target: ABI1, truncated, D143A, DHFR fusion (Arabidopsis thaliana)
Method: DHFR PCA, deep sequencing
Medium: yeast
Setting: methotrexate growth selection, single substitutions
Together with: (+)-ABA 0.39 µM
Reference: wild-type fitted maximum
Direction: higher = stronger binding
Starting sequence: PYL1, truncated, DHFR fusion (Arabidopsis thaliana); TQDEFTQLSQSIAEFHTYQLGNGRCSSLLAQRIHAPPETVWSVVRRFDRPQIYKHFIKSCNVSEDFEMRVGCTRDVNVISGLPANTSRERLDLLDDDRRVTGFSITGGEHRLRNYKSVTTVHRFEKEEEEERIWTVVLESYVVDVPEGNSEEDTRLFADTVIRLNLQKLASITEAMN
Substitution | relative binding score
S59D | 40.7%
E152V | 14.9%
D97N | 46.8%
D159M | -16.5%
S11M | 33.9%
E152K | -2.09%
C72W | 3.5%
I12T | 2.58%
S42W | 4.38%
H34C | 54.7%
V40S | -2.28%
S171A | 54.8%
N85K | 72.5%
R113T | 32.4%
E147N | 21.2%
V43G | -5.03%
R155D | -39.8%
I172K | -15%
H122Y | 2.53%
P146I | 17.8%
S63T | 34%
A30M | 57.4%
R98K | 46.8%

Block 4
Target: CCND3, cyclin fold, Cln2 fusion (human)
Method: yeast growth competition, sequencing
Medium: yeast
Setting: weak parent motif
Reference: not given
Direction: higher = stronger binding
Starting sequence: GMNC docking peptide (human); KNAKRNLSSEFAN
Substitution | normalised enrichment score
A3E | 0.304
A3V | 0.255
N6C | -0.251
N6Q | -0.0495
L7P | 0.096
S9N | 0.492
F11M | 0.522
F11G | 0.286
S9L | -0.224
A12F | 0.067
F11L | 0.141
E10K | 0.121
R5F | 0.18
N2A | 0.00178
N2C | 0.263
E10M | 0.0453
N6D | -0.12
A12I | 0.327
A12P | 0.261
L7G | 0.373
K4W | 0.0955
A12E | 0.298
F11K | -0.117
K4N | -0.137
L7N | 0.391

Repeated from above (block 3):
Substitution | relative binding score
I172K | -15%
R98K | 46.8%
H34C | 54.7%
I12T | 2.58%
E152V | 14.9%
S42W | 4.38%
